Experimental data gathered from unrelated publications.
Protocols differ between the studies behind these lines.
TMPRSS2: Transmembrane protease serine 2 (TMPRSS2, Homo sapiens, UniProt O15393)
UniProt O15393, sequence (whole entry, looked up): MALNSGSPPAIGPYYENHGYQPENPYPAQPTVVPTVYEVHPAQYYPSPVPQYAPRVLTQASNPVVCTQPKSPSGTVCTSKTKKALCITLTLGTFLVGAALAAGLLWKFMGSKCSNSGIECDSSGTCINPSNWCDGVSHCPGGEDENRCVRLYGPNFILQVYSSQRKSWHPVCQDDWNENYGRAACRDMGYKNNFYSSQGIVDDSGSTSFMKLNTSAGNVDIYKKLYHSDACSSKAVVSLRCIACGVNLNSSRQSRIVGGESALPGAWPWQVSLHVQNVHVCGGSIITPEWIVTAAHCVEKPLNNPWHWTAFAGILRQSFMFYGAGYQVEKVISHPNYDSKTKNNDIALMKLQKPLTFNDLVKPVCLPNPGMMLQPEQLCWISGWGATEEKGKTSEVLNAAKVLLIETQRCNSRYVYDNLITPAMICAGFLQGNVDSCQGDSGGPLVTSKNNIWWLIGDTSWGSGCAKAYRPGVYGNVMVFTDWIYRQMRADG
UniProt P35367, sequence (whole entry, looked up): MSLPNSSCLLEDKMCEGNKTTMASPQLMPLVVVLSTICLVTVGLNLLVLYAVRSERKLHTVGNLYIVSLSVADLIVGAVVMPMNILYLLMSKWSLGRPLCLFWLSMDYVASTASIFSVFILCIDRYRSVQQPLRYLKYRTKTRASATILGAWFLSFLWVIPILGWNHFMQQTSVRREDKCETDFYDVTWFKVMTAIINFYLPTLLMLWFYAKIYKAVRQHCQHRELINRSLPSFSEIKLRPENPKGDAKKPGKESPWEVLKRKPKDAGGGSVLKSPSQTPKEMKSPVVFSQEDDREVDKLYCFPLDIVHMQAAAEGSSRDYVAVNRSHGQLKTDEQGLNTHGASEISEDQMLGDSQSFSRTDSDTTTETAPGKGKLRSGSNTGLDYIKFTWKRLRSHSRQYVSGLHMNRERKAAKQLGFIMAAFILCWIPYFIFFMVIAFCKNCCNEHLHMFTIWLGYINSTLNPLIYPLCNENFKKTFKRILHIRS
UniProt Q9H422, sequence (whole entry, looked up): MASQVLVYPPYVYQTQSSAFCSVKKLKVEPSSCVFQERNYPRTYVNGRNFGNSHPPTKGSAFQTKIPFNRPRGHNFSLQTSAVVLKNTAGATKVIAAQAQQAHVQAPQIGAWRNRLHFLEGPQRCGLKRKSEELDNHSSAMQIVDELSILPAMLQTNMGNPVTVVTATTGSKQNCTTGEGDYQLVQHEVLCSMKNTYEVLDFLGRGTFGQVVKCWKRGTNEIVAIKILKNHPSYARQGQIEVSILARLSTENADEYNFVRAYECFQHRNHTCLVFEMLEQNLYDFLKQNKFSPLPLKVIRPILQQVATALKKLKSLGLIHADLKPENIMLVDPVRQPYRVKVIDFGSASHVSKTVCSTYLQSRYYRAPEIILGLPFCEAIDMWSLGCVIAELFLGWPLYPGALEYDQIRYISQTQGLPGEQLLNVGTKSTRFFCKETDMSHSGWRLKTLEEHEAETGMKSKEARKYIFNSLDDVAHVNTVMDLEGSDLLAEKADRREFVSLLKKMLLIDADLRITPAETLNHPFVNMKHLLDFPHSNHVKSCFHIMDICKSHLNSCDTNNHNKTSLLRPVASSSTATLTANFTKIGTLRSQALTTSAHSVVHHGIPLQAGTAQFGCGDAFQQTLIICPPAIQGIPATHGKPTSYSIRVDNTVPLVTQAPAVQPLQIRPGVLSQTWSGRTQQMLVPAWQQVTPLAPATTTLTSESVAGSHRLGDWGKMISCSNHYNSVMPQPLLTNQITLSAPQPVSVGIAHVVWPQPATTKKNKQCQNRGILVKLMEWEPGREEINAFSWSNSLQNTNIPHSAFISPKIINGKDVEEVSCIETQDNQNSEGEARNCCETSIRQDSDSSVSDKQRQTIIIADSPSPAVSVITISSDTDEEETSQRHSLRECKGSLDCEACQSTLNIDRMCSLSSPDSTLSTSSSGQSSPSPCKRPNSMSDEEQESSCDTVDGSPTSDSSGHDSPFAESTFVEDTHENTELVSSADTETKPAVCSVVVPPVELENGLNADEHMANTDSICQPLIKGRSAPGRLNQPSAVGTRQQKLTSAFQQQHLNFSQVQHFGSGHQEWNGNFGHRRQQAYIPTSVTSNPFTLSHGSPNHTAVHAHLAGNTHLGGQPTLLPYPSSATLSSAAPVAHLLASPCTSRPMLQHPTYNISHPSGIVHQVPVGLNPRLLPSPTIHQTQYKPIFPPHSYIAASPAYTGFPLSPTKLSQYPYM
UniProt Q9NRH2, sequence (whole entry, looked up): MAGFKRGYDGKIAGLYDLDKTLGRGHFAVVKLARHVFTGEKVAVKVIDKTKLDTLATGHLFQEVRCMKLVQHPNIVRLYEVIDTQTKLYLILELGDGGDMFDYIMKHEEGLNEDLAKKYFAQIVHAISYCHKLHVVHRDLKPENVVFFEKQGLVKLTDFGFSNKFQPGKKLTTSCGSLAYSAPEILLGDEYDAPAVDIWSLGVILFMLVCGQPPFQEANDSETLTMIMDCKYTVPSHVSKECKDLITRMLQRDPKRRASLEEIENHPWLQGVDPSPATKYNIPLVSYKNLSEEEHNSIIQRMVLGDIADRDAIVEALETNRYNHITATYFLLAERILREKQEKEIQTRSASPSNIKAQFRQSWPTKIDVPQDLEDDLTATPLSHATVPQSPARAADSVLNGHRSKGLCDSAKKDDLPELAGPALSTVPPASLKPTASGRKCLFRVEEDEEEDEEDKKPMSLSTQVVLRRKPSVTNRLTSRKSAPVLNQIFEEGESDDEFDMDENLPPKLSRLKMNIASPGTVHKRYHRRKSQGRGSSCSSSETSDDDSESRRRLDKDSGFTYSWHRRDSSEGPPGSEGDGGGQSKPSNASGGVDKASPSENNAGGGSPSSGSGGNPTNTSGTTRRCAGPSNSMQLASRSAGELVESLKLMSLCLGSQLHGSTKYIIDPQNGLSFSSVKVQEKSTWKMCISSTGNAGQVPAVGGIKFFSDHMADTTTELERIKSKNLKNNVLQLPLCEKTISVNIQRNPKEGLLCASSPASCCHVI
UniProt P07711, sequence (whole entry, looked up): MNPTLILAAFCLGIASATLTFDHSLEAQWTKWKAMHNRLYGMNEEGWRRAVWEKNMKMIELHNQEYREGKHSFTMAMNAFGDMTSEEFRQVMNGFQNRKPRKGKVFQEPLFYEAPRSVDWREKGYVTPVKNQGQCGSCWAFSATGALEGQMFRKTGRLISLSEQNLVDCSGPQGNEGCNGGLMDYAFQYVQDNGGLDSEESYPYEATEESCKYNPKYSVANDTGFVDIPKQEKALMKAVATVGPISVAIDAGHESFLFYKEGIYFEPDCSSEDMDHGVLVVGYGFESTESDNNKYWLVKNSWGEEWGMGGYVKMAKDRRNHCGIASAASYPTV
UniProt P29322, sequence (whole entry, looked up): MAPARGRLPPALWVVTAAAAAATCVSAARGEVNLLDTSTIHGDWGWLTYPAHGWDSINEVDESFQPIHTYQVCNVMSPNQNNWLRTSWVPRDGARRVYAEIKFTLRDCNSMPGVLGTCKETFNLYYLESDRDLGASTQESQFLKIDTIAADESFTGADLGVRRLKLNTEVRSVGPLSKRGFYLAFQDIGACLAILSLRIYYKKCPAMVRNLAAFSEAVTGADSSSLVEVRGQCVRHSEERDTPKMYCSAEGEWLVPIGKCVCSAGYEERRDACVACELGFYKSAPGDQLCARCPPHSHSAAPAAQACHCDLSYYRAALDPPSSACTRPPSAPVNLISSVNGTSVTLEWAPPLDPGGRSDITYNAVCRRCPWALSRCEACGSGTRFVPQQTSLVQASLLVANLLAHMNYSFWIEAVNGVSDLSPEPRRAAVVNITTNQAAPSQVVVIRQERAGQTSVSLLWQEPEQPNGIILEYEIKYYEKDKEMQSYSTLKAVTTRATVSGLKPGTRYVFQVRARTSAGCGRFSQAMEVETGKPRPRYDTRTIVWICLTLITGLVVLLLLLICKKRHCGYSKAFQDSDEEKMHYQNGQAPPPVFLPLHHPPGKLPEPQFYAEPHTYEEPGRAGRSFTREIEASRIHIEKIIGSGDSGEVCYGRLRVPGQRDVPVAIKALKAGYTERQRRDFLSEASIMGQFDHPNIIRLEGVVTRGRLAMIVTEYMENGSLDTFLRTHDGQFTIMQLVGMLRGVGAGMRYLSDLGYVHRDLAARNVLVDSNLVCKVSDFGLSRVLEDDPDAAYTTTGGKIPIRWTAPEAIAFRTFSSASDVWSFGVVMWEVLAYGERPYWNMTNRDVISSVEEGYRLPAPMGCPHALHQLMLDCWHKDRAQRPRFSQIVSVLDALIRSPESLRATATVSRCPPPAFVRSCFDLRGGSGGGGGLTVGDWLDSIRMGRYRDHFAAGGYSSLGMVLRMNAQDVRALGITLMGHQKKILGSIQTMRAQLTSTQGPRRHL
UniProt Q8NI60, sequence (whole entry, looked up): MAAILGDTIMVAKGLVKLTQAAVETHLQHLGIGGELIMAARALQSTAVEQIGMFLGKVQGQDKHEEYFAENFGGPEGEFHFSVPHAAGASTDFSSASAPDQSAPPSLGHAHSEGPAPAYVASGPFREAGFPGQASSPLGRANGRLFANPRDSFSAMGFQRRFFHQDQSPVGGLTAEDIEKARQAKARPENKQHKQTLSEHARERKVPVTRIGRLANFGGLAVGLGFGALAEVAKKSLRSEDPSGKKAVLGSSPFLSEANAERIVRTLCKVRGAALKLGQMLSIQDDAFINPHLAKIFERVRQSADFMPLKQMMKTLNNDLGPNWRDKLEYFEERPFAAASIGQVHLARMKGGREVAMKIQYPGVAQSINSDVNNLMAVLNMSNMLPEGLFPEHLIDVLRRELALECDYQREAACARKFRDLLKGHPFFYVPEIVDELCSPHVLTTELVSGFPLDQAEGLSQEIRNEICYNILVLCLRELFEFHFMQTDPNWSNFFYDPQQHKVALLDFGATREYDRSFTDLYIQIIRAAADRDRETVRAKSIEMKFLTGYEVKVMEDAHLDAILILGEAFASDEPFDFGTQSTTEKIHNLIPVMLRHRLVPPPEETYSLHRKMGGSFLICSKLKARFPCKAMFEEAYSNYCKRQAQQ

For `N#CCc1c[nH]c2ccccc12`, the remaining activity was 121% (Procathepsin L (CTSL, Homo sapiens, UniProt P07711); enzyme activity, inhibitor; 100 µM).
With `Cc1nn(C)cc1-c1nc2c(N3CCN(Cc4ccc(Cl)cc4)CC3)c(Cl)cnc2[nH]1` the remaining binding was 100% (SNF-related serine/threonine-protein kinase (SNRK, Homo sapiens, UniProt Q9NRH2); binding, competition with immobilised ligand; 1 µM).
For `Nc1ncc(-c2nc(N3CCOCC3)nc(N3CCOCC3)n2)c(C(F)F)n1`, the remaining binding was 56% (Homeodomain-interacting protein kinase 3 (HIPK3, Homo sapiens, UniProt Q9H422); binding, competition with immobilised ligand; 10 µM).
With `COc1ncccc1-c1cnn2ccc(N3CCN(C(=O)OC(C)C)CC3)nc12` the remaining binding was 81% (Atypical kinase COQ8A, mitochondrial (COQ8A, Homo sapiens, UniProt Q8NI60); binding, competition with immobilised ligand; 1 µM).
`CC(=O)N[C@@H](CCC(N)=O)C(=O)N[C@@H](Cc1ccccc1)C(=O)N[C@@H](CCNC(=N)N)CC(=O)c1nc2ccccc2s1` — result for “activity vs control”: 99% (TMPRSS2; enzyme activity, inhibitor; 1 nM).
`c1cncc([C@@H]2CCCN2)c1` gave an inhibition of -11% (Delta-type opioid receptor (OPRD1, Homo sapiens, UniProt P41143); ligand displacement; 50 µM).
For `[2H]c1c([2H])c([C@]2([2H])CCCN2C(=O)C(C)(C)Oc2ccc3cn[nH]c3c2)c([2H])c([2H])c1C([2H])([2H])[2H]`, the remaining binding was 67% (Ephrin type-A receptor 8 (EPHA8, Homo sapiens, UniProt P29322); binding, competition with immobilised ligand; 1 µM).
`N=C(N)NCCCCC(=O)N[C@@H](CCC(N)=O)C(=O)N[C@@H](Cc1c[nH]cn1)C(=O)N[C@@H](CCCNC(=N)N)C(=O)c1nc2ccccc2s1`: “activity vs control” 84% (TMPRSS2; enzyme activity, inhibitor; 1 nM).
`COc1ccc2nc(C)cc(Nc3ccc(Cl)c(Cl)c3)c2c1` has an IC50 of 1.39 µM (Dihydroorotate dehydrogenase (quinone), mitochondrial (PFF0160c, Plasmodium falciparum, UniProt Q08210); enzyme activity, inhibitor, absorbance).
`N=C(N)NCCCCC(=O)N[C@@H](CCC(N)=O)C(=O)N[C@@H](Cc1ccc(C(=O)c2ccccc2)cc1)C(=O)N[C@H](CCCNC(=N)N)C(=O)c1nc2ccccc2s1`: “activity vs control” 91% (TMPRSS2; enzyme activity, inhibitor; 1 nM).
`C#Cc1n[nH]c2c(-c3cn([C@@H](C)c4ccccn4)c(=O)[nH]c3=O)cc(F)cc12` has an inhibition of -2.7% (Serine/threonine-protein kinase ULK2 (ULK2, Homo sapiens, UniProt Q8IYT8); enzyme activity, inhibitor; 0.1 µM).
For `CCOC(=O)c1cn(CC)c2cc(N3CCCCCC3)c(F)cc2c1=O`, the IC50 was > 10 µM (Dihydroorotate dehydrogenase (quinone), mitochondrial (PFF0160c, Plasmodium falciparum, UniProt Q08210, E182D); enzyme activity, inhibitor, absorbance).
With `COC(=O)c1cc(-c2cccc(NC(=O)Nc3cccc(C(F)(F)F)c3)c2)on1` the MIC was > 64 µg/mL (Mycobacteroides chelonae; microbial growth, broth dilution; ATCC35752; 48 h).
The inhibition of `CC(C)CC(=O)OC[C@H]1O[C@@](C#N)(c2ccc3c(N)ncnn23)[C@H](O)[C@@H]1O` is reported as -5% (Histamine H1 receptor (HRH1, Homo sapiens, UniProt P35367); cell-free assay; 20 µM).

Repeated from above:
`N=C(N)NCCCCC(=O)N[C@@H](CCC(N)=O)C(=O)N[C@@H](Cc1c[nH]cn1)C(=O)N[C@@H](CCCNC(=N)N)C(=O)c1nc2ccccc2s1`: “activity vs control” 84% (TMPRSS2; enzyme activity, inhibitor; 1 nM).
